Results from different studies.
Compare with care: the assays were run in different laboratories.

CC(C)c1ccc(N(C)c2ccc3c(c2)OCC[C@H]3CNc2cnccc2C(=O)O)cc1 — IC50 (VCaP; cell growth or viability, ATP luminescence; 7 days): ≥ 10 µM
CN1CCCNC(=O)c2cccc(c2)C(=O)NCCCN(C)CCCNc2cccc3c2C(=O)c2cccc(c2C3=O)NCCC1 — log2 fold change (SAS; RNA-Seq, measured: SMUG1 mRNA; 1 µM, 6 h; reference: untreated cells): 0.535
[Cl-].[Cl-].[Ru+2].c1cc(-c2ccc3cccnc3n2)nc(-c2ccc3cccnc3n2)c1.c1ccc2cc3nc4c5cccnc5c5ncccc5c4nc3cc2c1 — phototoxicity index (B16-F10; resazurin; with: light 733 nm, 100 J/cm2; reference: dark EC50 over light EC50): 1
Cn1ncc2cc(-c3cncc(Cl)c3N3CCC4(CCNC4=O)CC3)ccc21 — log2 fold change (LS174T; gene expression, microarray, measured: PDK1 mRNA; concentration not given, 24 h; reference: untreated cells): 2.16
CCN(CC)CC(=O)Nc1cccc(-n2cc(-c3ccc4ccc(-c5cn(-c6cccc(NC(=O)CN(CC)CC)c6)nn5)cc4c3)nn2)c1 — fold regulation (RCC4; PCR angiogenesis array, measured: ANGPT2; 5 x IC50, 2 h, normoxia; reference: untreated): -1.49
CC(C)(C)c1cc(-c2ccc3cccnc3n2)nc(-c2ccc3cccnc3n2)c1.COc1ccncc1.[Cl-].[Cl-].[Ru+2].c1ccc2cc3nc4c5cccnc5c5ncccc5c4nc3cc2c1 — phototherapeutic index (B16-F10; light 633 nm; reference: dark EC50 over light EC50): 24
CNS(=O)(=O)Nc1nccc(Cc2c(C)c3ccc(Oc4ncccc4F)cc3oc2=O)c1F — IC50 (OVISE; cell viability; 7 days): > 1 µM
Cc1ncsc1-c1ccc(C(C)NC(=O)C2CC(O)CN2C(=O)C(NC(=O)CCCCCCCCCCN2CCCC(Nc3ncc(Cl)c(Nc4ccccc4S(=O)(=O)C(C)C)n3)C2)C(C)(C)C)cc1 (stereo not drawn) — log2 fold change (22Rv1; RNA-seq, measured: RAD54B mRNA; concentration not given; reference: DMSO): -1.07
CC(C)(C)c1cc(-c2ccc3cc4ccccc4nc3n2)nc(-c2ccc3cc4ccccc4nc3n2)c1.[Cl-].[Cl-].[Ru+2].c1ccc2cc3nc4c5cccnc5c5ncccc5c4nc3cc2c1 — EC50 (B16-F10; resazurin; with: light 633 nm, 20 mW, 100 J/cm2): 49.9 µM

A few entries again:
CC(C)c1ccc(N(C)c2ccc3c(c2)OCC[C@H]3CNc2cnccc2C(=O)O)cc1 — IC50 (VCaP; cell growth or viability, ATP luminescence; 7 days): ≥ 10 µM
